Measurements from different studies.
Each line is one published result; not all experiments were run side by side. ± gives the spread as reported.

Compound	system	setting	endpoint	result
CCCCN1C(=O)c2cccc3c(NCCCCCCCCCCN4CCOCC4)ccc(c23)C1=O	methanol		molar extinction coefficient	13900 M⁻¹ cm⁻¹
O=C([O-])CN1CCN(CC(=O)[O-])CCN(CC(=O)c2ccc(-c3ccc(OCC(=O)O)cc3)cc2)CCN(CC(=O)[O-])CC1.[Eu+3]	PBS	pH 7.4, absorbance at 340 nm	molar absorption coefficient	19600 ± 1400
CCC1=[N+]2N=C(/C=C/C=C/c3ccc(C(F)(F)F)cc3)C(=O)O[B-]2(c2ccccc2)Oc2cc(N(CC)CC)ccc21 (stereo not drawn)	toluene		molar absorption coefficient	60000 M⁻¹ cm⁻¹
CC1(C)C(/C=C/C2=C(Cl)C(=C/C=C3/N(CCCCCC(=O)O)c4ccccc4C3(C)C)/C[N+](C)(C)C2)=[N+](CCCCCC(=O)O)c2ccccc21	methanol		molar absorption coefficient	234000 M⁻¹ cm⁻¹
C=Cc1ccc([B-]23OC(=O)C(c4ccccc4)=N[N+]2=Cc2ccc(N(CC)CC)cc2O3)cc1 (stereo not drawn)	toluene		molar absorption coefficient	52000 M⁻¹ cm⁻¹
CCCCN1C(=O)c2cccc3c(NCCCCN4CCOCC4)ccc(c23)C1=O	toluene		molar extinction coefficient	7800 M⁻¹ cm⁻¹
C=Cc1ccccc1[B-]12OC(=O)C(c3ccccc3)=N[N+]1=C(C)c1ccc(N(CC)CC)cc1O2 (stereo not drawn)	toluene		molar absorption coefficient	44000 M⁻¹ cm⁻¹
CCCCN1C(=O)c2cccc3c(NCCCCCN4CCOCC4)ccc(c23)C1=O	dichloromethane		molar extinction coefficient	5610 M⁻¹ cm⁻¹
CC1=N/C(=C\c2cc(F)c(O)c(F)c2)C(=O)N1Cc1ccc(CO)cc1		pH 7.5	molar extinction coefficient	47000 ± 2000 M⁻¹ cm⁻¹

Some of these lines once more:
Compound	system	setting	endpoint	result
C=Cc1ccc([B-]23OC(=O)C(c4ccccc4)=N[N+]2=Cc2ccc(N(CC)CC)cc2O3)cc1 (stereo not drawn)	toluene		molar absorption coefficient	52000 M⁻¹ cm⁻¹
